Measured values pooled from the literature.
Each numbered part is a random draw from the data of one study; scales do not carry over between parts. Positions count from the first letter of the parent shown.

Sample 1
Target: Sal-like protein 4, full length isoform B (SALL4, Homo sapiens, UniProt Q9UJQ4-2, residues 1-616)
Technique: universal PBM
Molecule type: double-stranded DNA, one strand shown
Matrix: in vitro
Tested at: not given
Notes: 8-mer, flanks averaged, mean of replicates
Reading: higher = stronger binding
Construct (chain): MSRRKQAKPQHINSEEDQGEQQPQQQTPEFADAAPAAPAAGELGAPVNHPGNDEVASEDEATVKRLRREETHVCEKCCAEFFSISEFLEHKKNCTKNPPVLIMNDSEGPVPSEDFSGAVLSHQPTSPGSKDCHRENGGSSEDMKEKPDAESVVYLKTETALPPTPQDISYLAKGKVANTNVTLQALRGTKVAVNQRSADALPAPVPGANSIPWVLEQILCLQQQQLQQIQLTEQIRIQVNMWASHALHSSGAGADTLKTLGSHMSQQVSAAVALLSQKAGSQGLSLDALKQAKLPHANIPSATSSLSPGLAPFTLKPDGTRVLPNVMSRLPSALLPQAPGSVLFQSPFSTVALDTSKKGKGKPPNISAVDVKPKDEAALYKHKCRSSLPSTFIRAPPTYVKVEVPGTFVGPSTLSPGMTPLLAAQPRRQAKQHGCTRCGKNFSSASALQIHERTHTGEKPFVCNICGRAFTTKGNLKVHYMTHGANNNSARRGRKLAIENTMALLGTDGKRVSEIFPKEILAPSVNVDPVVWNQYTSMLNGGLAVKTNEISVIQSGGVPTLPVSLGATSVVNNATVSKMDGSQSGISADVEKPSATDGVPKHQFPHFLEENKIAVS
| Strand | E-score |
| --- | --- |
| GTACGCAA | -0.0281 |
| AGCGCCAT | -0.269 |
| AGATGTGG | 0.0795 |
| ACAAACTA | 0.164 |
| AGTTGAGC | -0.154 |
| CATGGCTC | -0.0811 |
| GGTTCCCA | -0.169 |
| CCGAGGCC | -0.377 |
| CCCTCGGA | -0.133 |
| CCGCCGAA | -0.278 |
| GAGAAAAC | -0.128 |
| GAAATGTA | 0.132 |
| ATAGTGTG | 0.0826 |
| GAGCTACC | -0.0943 |
| ACGTTGGA | -0.143 |
| GCTTATAA | 0.286 |
| GGAGACCA | -0.265 |
| ACTTCGAA | 0.0602 |
| AATTGATC | 0.0558 |
| CCCGCAAC | -0.146 |
| AAGCTCAA | -0.0224 |
| GCGCTGCC | -0.313 |
| ATCCTTTG | -0.0278 |
| CTTGGCGC | -0.19 |
| AAACGCCA | -0.0669 |

Sample 2
Target: ABI1, truncated, D143A, DHFR fusion (Arabidopsis thaliana)
Technique: DHFR PCA, deep sequencing
Matrix: yeast
Notes: methotrexate growth selection, single substitutions
Added: (+)-ABA 0.39 µM
Relative to: wild-type fitted maximum
Reading: higher = stronger binding
Starting sequence: PYL1, truncated, DHFR fusion (Arabidopsis thaliana); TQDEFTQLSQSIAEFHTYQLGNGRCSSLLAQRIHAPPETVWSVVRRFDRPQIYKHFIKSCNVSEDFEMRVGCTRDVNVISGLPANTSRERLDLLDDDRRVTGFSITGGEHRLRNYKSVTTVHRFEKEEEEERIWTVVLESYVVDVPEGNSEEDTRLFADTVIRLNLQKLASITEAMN
| Variant | relative binding score [%] |
| --- | --- |
| L29N | 13.2 |
| V62Q | -19.3 |
| I12N | 8.41 |
| T17H | 1.22 |
| Q31E | 7.64 |
| R90F | -17.4 |
| H34G | 15.8 |
| R163Q | 33.8 |
| D3K | 27.8 |
| W41T | -10.8 |
| S26L | -1.78 |
| Y18W | 32 |
| A84Y | 98.1 |
| V43M | 12.8 |
| E109T | 18.8 |
| E89L | 1.59 |
| D153W | -1.89 |
| D153H | -1.67 |
| K58C | -2.06 |

Sample 3
Target: Max dimerization protein 1, bHLH-zipper, MAX partner unstated (MXD1, Homo sapiens, UniProt Q05195, residues 56-136)
Technique: protein-binding microarray
Molecule type: double-stranded DNA, one strand shown
Matrix: in vitro
Tested at: not given
Notes: k-mer, scored over probes, only values ≥0.25
Reading: higher = stronger binding
Construct (chain): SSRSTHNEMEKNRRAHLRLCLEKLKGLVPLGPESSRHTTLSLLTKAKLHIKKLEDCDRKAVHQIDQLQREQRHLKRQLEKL
| Strand | E-score |
| --- | --- |
| CCACGCGA | 0.402 |
| ACATGAGG | 0.396 |
| AGCACGCT | 0.376 |
| ACCCCCCA | 0.284 |
| CCCCGCCG | 0.299 |
| ACGCATGC | 0.418 |
| ACATGCAC | 0.402 |
| CACGAGTA | 0.401 |
| ATCACGCG | 0.329 |
| GCGCGTGA | 0.292 |
| ATGGGGCG | 0.279 |
| CACGTGAG | 0.479 |
| ACCATGCT | 0.419 |
| ACACGCGC | 0.395 |
| CACGAGGC | 0.432 |
| CCTCGTGA | 0.365 |
| CTACATGC | 0.265 |
| AGACATGC | 0.407 |
| ATGGGGGC | 0.368 |
| ACGTGGCG | 0.372 |
| ACGTGCCG | 0.329 |
| GCGCATGA | 0.313 |
| GGCGGGGA | 0.388 |
| CACACGCC | 0.347 |
| AGTGGGGG | 0.26 |

Sample 4
Target: CCND2, cyclin fold, Cln2 fusion (human)
Technique: yeast growth competition, sequencing
Matrix: yeast
Notes: weak parent motif
Relative to: not given
Reading: higher = stronger binding
Starting sequence: RBL1 docking peptide (human); GSAKRRLFGEDPP; partner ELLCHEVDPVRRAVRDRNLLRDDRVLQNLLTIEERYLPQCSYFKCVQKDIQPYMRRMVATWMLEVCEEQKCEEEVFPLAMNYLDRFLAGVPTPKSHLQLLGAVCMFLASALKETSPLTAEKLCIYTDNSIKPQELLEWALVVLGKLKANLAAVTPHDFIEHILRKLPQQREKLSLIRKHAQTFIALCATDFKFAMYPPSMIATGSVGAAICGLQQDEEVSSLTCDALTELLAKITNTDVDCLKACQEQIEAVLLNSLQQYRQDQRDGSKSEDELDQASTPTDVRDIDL
| Variant | normalised enrichment score |
| --- | --- |
| S2A | 0.576 |
| R6Q | 0.0353 |
| R5K F8L | 0.0128 |
| R5P | 0.182 |
| P13E | -0.217 |
| R5T | -0.243 |
| P12W | 0.175 |
| L7Q | 0.489 |
| E10H | 0.606 |
| G1H | 0.332 |
| G9A | 0.595 |
| D11Q | 0.382 |
| G9L | 0.213 |
| R5C | 0.148 |
| S2C | 0.596 |
| S2Y | 0.483 |
| F8S | 0.15 |
| P12M | 0.116 |
| P12E | 0.712 |
| G1P | 0.13 |
| G1Y | 1.18 |
| F8K | 0.547 |
| P13M | 0.0416 |
| D11L | 0.411 |
| K4V | 0.405 |

Sample 5
Target: PABPC1L2, full length, GST fusion (mouse, UniProt A0ABA7IW68)
Technique: RNAcompete
Molecule type: RNA
Matrix: in vitro
Tested at: 20 nM
Notes: 7-mer, probes averaged, single round
Relative to: mean of 7-mers
Reading: higher = stronger binding
Construct (chain): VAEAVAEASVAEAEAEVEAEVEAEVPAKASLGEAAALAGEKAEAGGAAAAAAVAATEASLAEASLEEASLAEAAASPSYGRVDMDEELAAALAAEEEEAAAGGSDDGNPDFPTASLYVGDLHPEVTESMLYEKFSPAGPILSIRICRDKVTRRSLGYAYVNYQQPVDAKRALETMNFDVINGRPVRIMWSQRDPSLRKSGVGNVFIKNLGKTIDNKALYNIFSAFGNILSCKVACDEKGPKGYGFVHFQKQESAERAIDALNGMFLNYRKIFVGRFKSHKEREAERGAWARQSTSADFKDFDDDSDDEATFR
| Strand | 7-mer Z-score |
| --- | --- |
| AGUAGUA | -0.0464 |
| GUUUAAC | -0.34 |
| UCGGUUG | -0.382 |
| CCGGCUG | -0.316 |
| UAUCGAG | -0.182 |
| GGGUGGC | 0.294 |
| CCACUGA | -0.231 |
| UCCGGGU | -0.199 |
| CCGAAAA | 5.13 |
| CUGAAAC | -0.0192 |
| AACUUGG | 0.249 |
| UGACAAU | -0.0736 |
| UUACACC | -0.209 |
| UUCUCUA | -0.246 |
| AAAAGUG | 6.53 |
| AAGUACC | -0.021 |
| CUCGGAC | -0.217 |
| AUCUCAG | -0.0573 |
| CGGCCUC | -0.365 |
| AACAGAG | 0.833 |
| AAUGAUA | 0.178 |
| CACGGGG | 0.115 |
| AAUACAG | 0.474 |
| AUGGUCG | -0.0464 |
| AUAGGUA | -0.0409 |

Sample 6
Target: RING finger protein unkempt homolog, zinc fingers 1-6, GST-SBP tag (UNK, Homo sapiens, UniProt Q9C0B0, residues 30-357)
Technique: RNA Bind-n-Seq
Molecule type: RNA
Matrix: in vitro
Tested at: not given
Notes: RNA with constant flanks, human and mouse sites, ends assumed
Relative to: input RNA pool
Reading: higher = stronger binding
Constant ends, left off below: GGGAGUUCUACAGUCCGACGAUC … CAACAGAGGAUUGAGCAUCA
Construct (chain): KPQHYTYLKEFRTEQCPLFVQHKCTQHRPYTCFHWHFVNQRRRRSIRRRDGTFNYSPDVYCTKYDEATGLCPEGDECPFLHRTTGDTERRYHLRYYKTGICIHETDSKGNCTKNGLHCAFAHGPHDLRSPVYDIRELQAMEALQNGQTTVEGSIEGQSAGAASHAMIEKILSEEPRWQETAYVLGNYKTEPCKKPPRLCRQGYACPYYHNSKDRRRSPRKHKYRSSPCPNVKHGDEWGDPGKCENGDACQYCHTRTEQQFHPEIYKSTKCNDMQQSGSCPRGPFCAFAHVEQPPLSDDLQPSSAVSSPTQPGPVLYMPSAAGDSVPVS
| Strand | bound/input enrichment |
| --- | --- |
| UAUGUGCCCAAUGUUCCAGAAGGAUCUGUGAGAAUCAUAGACCAGUCAAGCAAUGUGGAGAUAGCAUCUUUUCCAAUUUAUAAAGUGCUUUUCUGUGCACGUGGGCAUGAUGGGACAGCC | 17.1 ratio |
| GGUUUGGUGUUUGGUUUUUGUUUGUUUGUUUUACUUUUUAAAUACAACACGUACAGUUUCAUUAGCCCCAGGCCUUGUCAUCCUGUGUUCAUUCAAAUUGAGAUACAAUCUAAAAUUCAU | 0.116 ratio |
| CAGGCAACUGAAAUGCUAUACAUGCGUUUGGACACAAUGAACACUACCUGUGUAGACAGGUUUAUUAAUUGGUUUUCUCAUCAUCUAAGUAACUUCCAGUUCCGUUGGAGCUGGGAAGAU | 0.327 ratio |
| CUCACAAACAGCCAUCUGGAGAAAAGGAAAUGCGACGAGUAUAUUCCAGGAACAACCUCCCUGGGAAUGUCUGUCUUUAACCUGAGCAACGCCAUCAUGGGCAGUGGAAUCUUGGGCCUU | 0.139 ratio |
| ACUACAAAGAGAAUUGUCGAGAACGGUCAAGAAAGAGUAGAAGUUGAAGAAGAUGGCCAGUUAAAGUCCUUAACAAUAAAUGGUAAGGAGCAGCUGCUGCGCUUGGAUAACAAGUAAUUC | 0.296 ratio |
| UAGCCUGCACAAAUAAUUGACAAAUGUCACCCAAAGGAUUCUUUUGGGAGGGUUUUUGUUUGCUUGUUUUGCAUAAGAGUUUGUAUUAAAGAACUUCAAAGGAAGGAACAGGGAUACUCU | 0.617 ratio |
| CUGGACUUCCACCGCUGUCAGAAGGCAAUGACCGCUAAAGGAGGCGAUAUCUCUGUGUGCGAAUGGUACCAGCGUGUGUACCAGUCCCUCUGCCCCACAUCCUGGGUCACAGACUGGGAU | 0.0773 ratio |
| UGUCUGGACCGGCACUGGGUUCUGCAGGGUUGAAGACGGGCAACAGAUGCCAGAAGCUCCCUUAGACUGUCACCUGAGUCUGGAGACCGGCUCGCAGCCCCACAGCAUCACACUGCAAGU | 0.315 ratio |
| GGCGCGUGGGGCUGUUUGGUCCCCUCCGGAGUGCGGUGAGGCGGGCCGAGCCGGGACUGCCUGGGUUUGGGGAUAACGUUCCCAUCUCCACCCCUGUUGCAGCAAGGGAAAUUGAGGCUG | 0.203 ratio |
| GGGACUCAGGGCUGGACCGACGUCCUAGUGGACCUGAUGUGAAAUUCCUGUCAAACAAACACCACUUUUCAAUGGUUUGCUAGGAGUAUUUCUGUAUUGAAAGUUUCUAAUUAUGCUUUU | 0.654 ratio |
| AUGUCUUUAGUUUCAGAAUAACAGUGCCAUUACCAUAUGUUUGUAUGUUGCAGUUGGAUAUAGCUGAGACUCCUCCAUCUUGGUUUUCUCUUCACUCAUCCAUUUCUUCAGCUGCAUGAU | 1.5 ratio |

Repeated from above (sample 5):
| Strand | 7-mer Z-score |
| --- | --- |
| AAGUACC | -0.021 |
| UCCGGGU | -0.199 |
| AACAGAG | 0.833 |
| UUACACC | -0.209 |
| UCGGUUG | -0.382 |
| AAAAGUG | 6.53 |
| GUUUAAC | -0.34 |
| AGUAGUA | -0.0464 |
